Published values pooled from the literature.
Compare with care: the assays were run in different laboratories. Several values in a cell are separate wells, animals, samples, runs or records. ± marks the error that the study gave.
Palmitoyl-protein thioesterase 1: Palmitoyl-protein thioesterase 1 (Homo sapiens, UniProt P50897)
Adhesin FmlH lectin domain: Adhesin FmlH, lectin domain (Escherichia coli, UniProt Q1RBS0)
SLC6A2: Sodium-dependent noradrenaline transporter (SLC6A2, Homo sapiens, UniProt P23975)
Luciferin 4-monooxygenase: Luciferin 4-monooxygenase (Photinus pyralis, UniProt P08659)
DRD1: D(1A) dopamine receptor (DRD1, Homo sapiens, UniProt P21728)
HTR1E: 5-hydroxytryptamine receptor 1E (HTR1E, Homo sapiens, UniProt P28566)

SMILES	target or system	test	system	conditions	how to read	inhibition
COc1cc(O)c(C(=O)c2ccccc2)cc1S(=O)(=O)O	Palmitoyl-protein thioesterase 1	Spectrum Collection screen		concentration not given, together with: substrate 20 µM		69.7%
CCc1oc2ccccc2c1C(=O)c1cc(Br)c(O)c(Br)c1	Solute carrier family 22 member 12 (SLC22A12, Homo sapiens, UniProt Q96S37, S35A)	uric acid uptake	HEK293T transfected with SLC22A12 S35A	0.5 µM, 10 min, 37 °C, mean, together with: [14C]urate 200 µM		63.8%
CCN(CC)C(=O)/C(C#N)=C/c1cc(O)c(O)c([N+](=O)[O-])c1	Palmitoyl-protein thioesterase 1	Spectrum Collection screen		concentration not given, together with: substrate 20 µM		61.8%
CC(=O)N[C@H]1[C@@H](Oc2ccc([N+](=O)[O-])cc2)O[C@H](CO)[C@H](O)[C@@H]1O[C@@H]1O[C@H](CO)[C@H](O)[C@H](O)[C@H]1O	Adhesin FmlH lectin domain	binding to desialylated mucin, ELISA competition	UPEC UTI89	100 µM		15.3 ± 3.1%
FC(F)(F)C1=C/C(=C/CCCCCCOCc2ccccc2)c2cc3c(cc21)OCO3	Protein disulfide-isomerase (P4HB, Homo sapiens, UniProt P07237)	enzyme activity, inhibitor, insulin reduction		concentration not given, biochemical		no effect
COc1cc(C(=O)NS(=O)(=O)c2ccccc2C)ccc1Cc1cn(C)c2ccc(NC(=O)OC3CCCC3)cc12	Volume-regulated anion channel subunit LRRC8C, part LRRC8A IL1 chimera (LRRC8C, Homo sapiens, UniProt Q8TDW0, Y126F)	ion current, inhibitor, whole-cell patch clamp	HCT LRRC8-/- cells	1 µM, +100 mV		64.7% and 38.1% and 50.9% and 63.4% and 38.2% and 40.7% and 64.2%
CCN1CCN(Cc2cc(NC(=O)c3ccc(C)c(-c4ccc5nc(NC(=O)C6CC6)cn5n4)c3)cc(C(F)(F)F)c2)CC1	Tyrosine-protein kinase JAK2 (JAK2, Homo sapiens, UniProt O60674, V617F)	kinase activity, inhibitor, KiNativ profiling	SET-2	5 µM		87.3%
Cc1noc(NS(=O)(=O)c2ccc(N=NN(O)c3ccccc3)cc2)c1C	α-glucosidase, rat intestine	enzyme activity		180 µg/mL, together with: 4-nitrophenyl α-D-glucopyranoside		45 ± 0.18%
O=c1ccc2nc3ccc(O[C@@H]4O[C@H](CO)[C@H](O)[C@H](O)[C@H]4O)cc3oc-2c1	Adhesin FmlH lectin domain	binding to desialylated mucin, ELISA competition	UPEC UTI89	100 µM		80.4 ± 6.6%
O=C(NO)c1ccc(CN2CCCCc3ccccc32)c(F)c1	SLC6A2	radioligand binding, PDSP radioligand binding		10 µM		-61.9%
Cc1cc(NS(=O)(=O)c2ccc(N=NN(O)c3ccccc3)cc2)no1	α-glucosidase, rat intestine	enzyme activity		300 µg/mL, together with: 4-nitrophenyl α-D-glucopyranoside		55 ± 0.18%
CC(C)c1noc2ncc(C(=O)c3ccccc3O)cc12	Sodium channel protein type 2 subunit alpha (Scn2a, Rattus norvegicus, UniProt P04775)	ion current, inhibitor, whole-cell patch clamp		10 µM		1% and 5.4% and 11.6% and 6% and 7.5%
O=C(Nc1cccc2c(=O)cc(-c3nnn[nH]3)oc12)c1ccc(OCCCCc2ccccc2)cc1	LRRC8A/LRRC8C (Homo sapiens, UniProt Q8IWT6+Q8TDW0, Y124F/Y126F)	ion current, whole-cell patch clamp	HCT LRRC8-/- cells	10 µM, +100 mV, Y124F/Y126F heteromers		15.7% and 26.7% and 0.528% and 75.3% and 28.9% and 23.4%
COc1ccc2c(c1)C(CC(=O)O)=C/C2=C\c1ccc(-c2ccccc2)cc1	Prostaglandin G/H synthase 1 (PTGS1, Ovis aries, UniProt P05979)	enzyme activity		4 µM, together with: 5 µM arachidonic acid		38 to 49%
CNc1cccc2cc(C(=O)Nc3ccc(C(=O)O)cc3)c(=O)[nH]c12	AMPK	kinase activity, inhibitor		10 µM		8.5%
Cc1cc(NS(=O)(=O)c2ccc(N=NN(C)O)cc2)no1	α-glucosidase, rat intestine	enzyme activity		60 µg/mL, together with: 4-nitrophenyl α-D-glucopyranoside		15 ± 0.29%
CC[C@@H]1[C@H](F)C(=O)N[C@@H]1COc1nccc2cc(C(N)=O)c(OC)cc12	Inhibitor of nuclear factor kappa-B kinase subunit epsilon (IKBKE, Homo sapiens, UniProt Q14164)	ATP-site probe binding, ActivX profiling	THP-1 cell lysate	0.04 mM, Lys1 site		7.3%
CCN(O)N=Nc1ccc(S(=O)(=O)Nc2onc(C)c2C)cc1	α-glucosidase, rat intestine	enzyme activity		20 µg/mL, together with: 4-nitrophenyl α-D-glucopyranoside		4.5 ± 2.34%
CN1CCC(NC(=O)c2cccc3c2CCN3C(=O)Nc2ccc(F)cc2)CC1	Luciferin 4-monooxygenase	luciferase luminescence, inhibitor	cell-free	50 µM, counter-screen		33.9%
CN1CCN(c2cc(-c3ccncc3)c(-c3ccc4ccccc4c3)nn2)CC1	C3a anaphylatoxin chemotactic receptor (C3AR1, Homo sapiens, UniProt Q16581)	antagonist, FLIPR		10 µM		1.2%
O=C1c2ccccc2CCN1CCCCN1CCN(c2ccccn2)CC1	DRD1	radioligand binding		concentration not given, together with: [3H]SCH23390		53.9%
C#C[C@]1(OC(C)=O)CC[C@H]2[C@@H]3CCC4=C[C@@H](OC(C)=O)CC[C@@H]4[C@H]3CC[C@@]21C	Palmitoyl-protein thioesterase 1	Spectrum Collection screen		concentration not given, together with: substrate 20 µM		60.3%
COc1cc(-c2cc(C(C)=O)n3ccccc23)c(OC)cc1Cn1ccnc1	Peregrin (BRPF1, Homo sapiens, UniProt P55201)			1 µM		0.12%
O=c1oc(-c2ccco2)nc2ccccc12	Coagulation factor XI (F11, Homo sapiens, UniProt P03951)	chromogenic substrate hydrolysis		up to 50 µM		no inhibition
COc1ccc(F)cc1C(=O)NCc1ccc(-c2nn([C@@H](C)C(F)(F)F)c(N)c2C(N)=O)cc1	Serine/threonine-protein kinase OSR1 (OXSR1, Homo sapiens, UniProt O95747)	target engagement, competitive chemoproteomics	human PBMCs	1 µM		13.7%
O=C(CN1CCO[C@@H](COc2cccnc2)C1)N1CCc2ccccc21	DRD1	radioligand binding		concentration not given, together with: [3H]SCH23390		9.8%

SMILES	target or system	test	system	conditions	how to read	inhibition
O=C(NCC1CCCO1)c1cc(N2CCCC2)n2nccc2n1 (stereo not shown)	Luciferin 4-monooxygenase	luciferase luminescence, inhibitor	cell-free	50 µM, counter-screen		4.78%
CCCNC(C)(C)COC(=O)c1ccccc1	Palmitoyl-protein thioesterase 1	Spectrum Collection screen		concentration not given, together with: substrate 20 µM		61.6%
CC1(C)S[C@@H]2[C@H](NC(=O)[C@H](N)c3ccccc3)C(=O)N2[C@H]1C(=O)O	THP-1	pyroptotic LDH release		2 µM, 40 min, together with: LPS then nigericin		-9.88%
Cc1ncccc1OC[C@@H]1CN(CCN2CCc3ccccc32)CCO1	HTR1E	radioligand binding		concentration not given, together with: [3H]5-HT		-13.2%
COCCNCc1ccc(OCC(O)CN2CCCCCC2)c(OC)c1 (stereo not shown)	Luciferin 4-monooxygenase	luciferase luminescence, inhibitor	cell-free	50 µM, counter-screen		1.09%
Nc1ncnc2[nH]cnc12	Gelsolin, peptide (GSN, Homo sapiens, UniProt P06396)	gelsolin peptide aggregation, inhibitor, ThT fluorescence		100 µM, 12 h, 37 °C		15%
NC/C(=C\F)COc1cccc(Cn2c(=S)[nH]c(=O)c3[nH]cnc32)c1	rat kainate receptor	radioligand binding		10 µM		< 50%
Cn1cncc1[C@@](N)(c1ccc(Cl)cc1)c1ccc2c(c1)c(-c1cccc(Cl)c1)cc(=O)n2C	Protein farnesyltransferase (Homo sapiens, UniProt P49354+P49356)	enzyme activity, inhibitor, scintillation proximity	leukaemia patients, leukaemic blasts	300 mg/m^2, 10 days, range	baseline: pretreatment	50 to 92%
COc1cc2c(cc1OC)C(=O)C(CC1CCN(Cc3ccccc3)CC1)C2 (stereo not shown)	HTR1E	radioligand binding		concentration not given, together with: [3H]5-HT		0.4%
c1ccc2[nH]c(-c3cscn3)nc2c1	Luciferin 4-monooxygenase	luciferase luminescence, inhibitor	cell-free	50 µM, counter-screen		96.2%
CCCN(O)N=Nc1ccc(S(=O)(=O)Nc2nccs2)cc1	α-glucosidase, rat intestine	enzyme activity		240 µg/mL, together with: 4-nitrophenyl α-D-glucopyranoside		47.5 ± 0.041%
O=C(CN1CCO[C@H](COc2cccc(Cl)c2)C1)N1CCc2ccccc21	DRD1	radioligand binding		concentration not given, together with: [3H]SCH23390		43.2%
Cn1cnc(Br)c1C1=CN(c2ncnc3[nH]cnc23)CCS1	cGMP-dependent protein kinase 1, isoform beta (PRKG1, Homo sapiens, UniProt Q13976)	enzyme activity		2 µM		97.9%
Cc1cccc(N(O)N=Nc2ccc(S(=O)(=O)Nc3nccs3)cc2)c1	α-glucosidase, rat intestine	enzyme activity		20 µg/mL, together with: 4-nitrophenyl α-D-glucopyranoside		5 ± 0.041%
c1ccc(Cn2ncc3[nH]c(-c4ccc(-n5ccnc5)cc4)nc32)cc1	Luciferin 4-monooxygenase	luciferase luminescence, inhibitor	cell-free	50 µM, counter-screen		7.2%
O=C(c1ccc(F)cc1)N(Cc1ccccc1)C1CCCCC1	SLC6A2			10 µM		24%
COc1cc(/C=C/C(=O)O)cc(OC)c1OC	Palmitoyl-protein thioesterase 1	Spectrum Collection screen		concentration not given, together with: substrate 20 µM		63.6%
CCN(O)N=Nc1ccc(S(=O)(=O)Nc2cc(C)on2)cc1	α-glucosidase, rat intestine	enzyme activity		300 µg/mL, together with: 4-nitrophenyl α-D-glucopyranoside		70 ± 0.01%
Cc1nn(-c2nc3c(F)cc(F)cc3s2)c(O)c1C(c1ccccc1C(=O)O)c1c(C)nn(-c2nc3c(F)cc(F)cc3s2)c1O	Cyclic GMP-AMP synthase, catalytic domain; with DNA (CGAS, Homo sapiens, UniProt Q8N884)	cGAS phase separation, inhibitor		20 µM		102%
COc1cccc(OC[C@H]2CN(CCN3CCc4ccccc43)CCO2)c1	HTR1E	radioligand binding		concentration not given, together with: [3H]5-HT		-15.1%
CN(C(=O)n1cnc(-c2ccc[n+]([O-])c2)c1)C1CCCCC1	Alpha-1A adrenergic receptor (Adra1a, Rattus norvegicus, UniProt P43140)			10 µM		5.46%
c1cncc(OC[C@@H]2CN(CCN3CCc4ccccc43)CCO2)c1	DRD1	radioligand binding		concentration not given, together with: [3H]SCH23390		18.7%
Cc1ccc(N(O)N=Nc2ccc(S(=O)(=O)Nc3onc(C)c3C)cc2)cc1	α-glucosidase, rat intestine	enzyme activity		300 µg/mL, together with: 4-nitrophenyl α-D-glucopyranoside		42.5%
COc1ccccc1N1CCN(CCCCN2CCc3ccccc3C2=O)CC1	DRD1	radioligand binding		concentration not given, together with: [3H]SCH23390		74%
COc1cccc(-c2cc(=O)c3ccccc3o2)c1N	Luciferin 4-monooxygenase	luciferase luminescence, inhibitor	cell-free	50 µM, counter-screen		75.6%
CC(C)OC(=O)CCC/C=C\C[C@@H]1[C@@H](CC[C@@H](O)CCc2ccccc2)[C@H](O)C[C@@H]1O	THP-1	pyroptotic LDH release		2 µM, 40 min, together with: LPS then nigericin		2.7%

A few entries again:
SMILES	target or system	test	system	conditions	how to read	inhibition
Cc1cc(NS(=O)(=O)c2ccc(N=NN(O)c3ccccc3)cc2)no1	α-glucosidase, rat intestine	enzyme activity		300 µg/mL, together with: 4-nitrophenyl α-D-glucopyranoside		55 ± 0.18%
CC(C)c1noc2ncc(C(=O)c3ccccc3O)cc12	Sodium channel protein type 2 subunit alpha (Scn2a, Rattus norvegicus, UniProt P04775)	ion current, inhibitor, whole-cell patch clamp		10 µM		1% and 5.4% and 11.6% and 6% and 7.5%
O=C(Nc1cccc2c(=O)cc(-c3nnn[nH]3)oc12)c1ccc(OCCCCc2ccccc2)cc1	LRRC8A/LRRC8C (Homo sapiens, UniProt Q8IWT6+Q8TDW0, Y124F/Y126F)	ion current, whole-cell patch clamp	HCT LRRC8-/- cells	10 µM, +100 mV, Y124F/Y126F heteromers		15.7% and 26.7% and 0.528% and 75.3% and 28.9% and 23.4%
COc1ccc2c(c1)C(CC(=O)O)=C/C2=C\c1ccc(-c2ccccc2)cc1	Prostaglandin G/H synthase 1 (PTGS1, Ovis aries, UniProt P05979)	enzyme activity		4 µM, together with: 5 µM arachidonic acid		38 to 49%
CNc1cccc2cc(C(=O)Nc3ccc(C(=O)O)cc3)c(=O)[nH]c12	AMPK	kinase activity, inhibitor		10 µM		8.5%
Cc1cc(NS(=O)(=O)c2ccc(N=NN(C)O)cc2)no1	α-glucosidase, rat intestine	enzyme activity		60 µg/mL, together with: 4-nitrophenyl α-D-glucopyranoside		15 ± 0.29%
CC[C@@H]1[C@H](F)C(=O)N[C@@H]1COc1nccc2cc(C(N)=O)c(OC)cc12	Inhibitor of nuclear factor kappa-B kinase subunit epsilon (IKBKE, Homo sapiens, UniProt Q14164)	ATP-site probe binding, ActivX profiling	THP-1 cell lysate	0.04 mM, Lys1 site		7.3%
CCN(O)N=Nc1ccc(S(=O)(=O)Nc2onc(C)c2C)cc1	α-glucosidase, rat intestine	enzyme activity		20 µg/mL, together with: 4-nitrophenyl α-D-glucopyranoside		4.5 ± 2.34%
